# Measured values gathered from unrelated publications.
# Protocols differ between the studies behind these lines. ± gives the spread as reported.
# CHRM1: Muscarinic acetylcholine receptor M1 (CHRM1, Homo sapiens, UniProt P11229)
# UniProt P11229, sequence (whole entry, looked up): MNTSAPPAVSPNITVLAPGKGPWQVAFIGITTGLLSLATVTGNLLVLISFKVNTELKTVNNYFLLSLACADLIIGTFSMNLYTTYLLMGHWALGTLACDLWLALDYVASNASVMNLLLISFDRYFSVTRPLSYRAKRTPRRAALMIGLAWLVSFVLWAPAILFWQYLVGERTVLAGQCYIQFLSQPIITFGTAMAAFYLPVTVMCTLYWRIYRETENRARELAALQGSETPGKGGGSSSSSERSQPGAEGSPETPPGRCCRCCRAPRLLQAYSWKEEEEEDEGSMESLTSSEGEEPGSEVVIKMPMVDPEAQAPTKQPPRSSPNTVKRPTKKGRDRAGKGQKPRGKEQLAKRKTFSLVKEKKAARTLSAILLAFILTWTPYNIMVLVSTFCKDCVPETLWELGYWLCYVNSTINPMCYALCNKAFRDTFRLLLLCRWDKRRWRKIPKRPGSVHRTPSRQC
# UniProt P42336, sequence (whole entry, looked up): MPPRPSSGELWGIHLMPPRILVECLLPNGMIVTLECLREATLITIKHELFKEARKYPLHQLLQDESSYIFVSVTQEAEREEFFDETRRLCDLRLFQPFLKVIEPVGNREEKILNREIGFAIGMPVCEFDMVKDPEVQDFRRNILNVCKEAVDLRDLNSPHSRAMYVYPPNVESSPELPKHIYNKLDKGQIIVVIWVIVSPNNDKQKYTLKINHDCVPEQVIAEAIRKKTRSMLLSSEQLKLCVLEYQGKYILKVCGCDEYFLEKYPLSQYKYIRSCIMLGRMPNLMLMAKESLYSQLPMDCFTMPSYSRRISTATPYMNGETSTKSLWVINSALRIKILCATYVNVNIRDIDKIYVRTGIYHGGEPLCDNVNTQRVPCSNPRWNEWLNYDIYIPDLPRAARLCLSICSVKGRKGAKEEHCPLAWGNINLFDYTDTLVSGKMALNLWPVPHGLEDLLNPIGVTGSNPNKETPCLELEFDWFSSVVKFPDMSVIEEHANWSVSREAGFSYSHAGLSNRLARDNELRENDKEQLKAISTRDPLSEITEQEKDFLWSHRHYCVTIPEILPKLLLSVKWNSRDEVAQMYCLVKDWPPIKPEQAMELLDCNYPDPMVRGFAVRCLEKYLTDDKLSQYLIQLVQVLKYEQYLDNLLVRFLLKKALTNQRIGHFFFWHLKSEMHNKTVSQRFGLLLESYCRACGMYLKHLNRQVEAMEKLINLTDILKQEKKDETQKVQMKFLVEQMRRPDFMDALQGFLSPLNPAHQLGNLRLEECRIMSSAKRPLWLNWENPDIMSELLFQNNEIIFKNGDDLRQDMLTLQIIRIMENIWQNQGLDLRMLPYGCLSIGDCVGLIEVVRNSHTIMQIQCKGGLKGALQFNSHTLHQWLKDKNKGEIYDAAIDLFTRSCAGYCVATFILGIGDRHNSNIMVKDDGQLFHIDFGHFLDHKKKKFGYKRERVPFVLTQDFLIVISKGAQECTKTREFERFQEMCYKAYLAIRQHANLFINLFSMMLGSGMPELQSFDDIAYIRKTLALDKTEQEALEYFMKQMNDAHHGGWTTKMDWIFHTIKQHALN
# UniProt Q7L266, sequence (whole entry, looked up): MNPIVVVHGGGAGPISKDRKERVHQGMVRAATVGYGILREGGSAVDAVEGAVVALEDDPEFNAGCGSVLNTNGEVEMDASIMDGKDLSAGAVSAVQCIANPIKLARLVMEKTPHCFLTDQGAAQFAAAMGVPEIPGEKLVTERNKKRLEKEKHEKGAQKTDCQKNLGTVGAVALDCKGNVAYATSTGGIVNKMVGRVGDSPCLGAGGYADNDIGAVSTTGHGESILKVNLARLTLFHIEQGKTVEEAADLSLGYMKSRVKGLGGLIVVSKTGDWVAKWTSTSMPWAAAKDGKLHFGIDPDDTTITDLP
# UniProt Q9Y5Y9, sequence (whole entry, looked up): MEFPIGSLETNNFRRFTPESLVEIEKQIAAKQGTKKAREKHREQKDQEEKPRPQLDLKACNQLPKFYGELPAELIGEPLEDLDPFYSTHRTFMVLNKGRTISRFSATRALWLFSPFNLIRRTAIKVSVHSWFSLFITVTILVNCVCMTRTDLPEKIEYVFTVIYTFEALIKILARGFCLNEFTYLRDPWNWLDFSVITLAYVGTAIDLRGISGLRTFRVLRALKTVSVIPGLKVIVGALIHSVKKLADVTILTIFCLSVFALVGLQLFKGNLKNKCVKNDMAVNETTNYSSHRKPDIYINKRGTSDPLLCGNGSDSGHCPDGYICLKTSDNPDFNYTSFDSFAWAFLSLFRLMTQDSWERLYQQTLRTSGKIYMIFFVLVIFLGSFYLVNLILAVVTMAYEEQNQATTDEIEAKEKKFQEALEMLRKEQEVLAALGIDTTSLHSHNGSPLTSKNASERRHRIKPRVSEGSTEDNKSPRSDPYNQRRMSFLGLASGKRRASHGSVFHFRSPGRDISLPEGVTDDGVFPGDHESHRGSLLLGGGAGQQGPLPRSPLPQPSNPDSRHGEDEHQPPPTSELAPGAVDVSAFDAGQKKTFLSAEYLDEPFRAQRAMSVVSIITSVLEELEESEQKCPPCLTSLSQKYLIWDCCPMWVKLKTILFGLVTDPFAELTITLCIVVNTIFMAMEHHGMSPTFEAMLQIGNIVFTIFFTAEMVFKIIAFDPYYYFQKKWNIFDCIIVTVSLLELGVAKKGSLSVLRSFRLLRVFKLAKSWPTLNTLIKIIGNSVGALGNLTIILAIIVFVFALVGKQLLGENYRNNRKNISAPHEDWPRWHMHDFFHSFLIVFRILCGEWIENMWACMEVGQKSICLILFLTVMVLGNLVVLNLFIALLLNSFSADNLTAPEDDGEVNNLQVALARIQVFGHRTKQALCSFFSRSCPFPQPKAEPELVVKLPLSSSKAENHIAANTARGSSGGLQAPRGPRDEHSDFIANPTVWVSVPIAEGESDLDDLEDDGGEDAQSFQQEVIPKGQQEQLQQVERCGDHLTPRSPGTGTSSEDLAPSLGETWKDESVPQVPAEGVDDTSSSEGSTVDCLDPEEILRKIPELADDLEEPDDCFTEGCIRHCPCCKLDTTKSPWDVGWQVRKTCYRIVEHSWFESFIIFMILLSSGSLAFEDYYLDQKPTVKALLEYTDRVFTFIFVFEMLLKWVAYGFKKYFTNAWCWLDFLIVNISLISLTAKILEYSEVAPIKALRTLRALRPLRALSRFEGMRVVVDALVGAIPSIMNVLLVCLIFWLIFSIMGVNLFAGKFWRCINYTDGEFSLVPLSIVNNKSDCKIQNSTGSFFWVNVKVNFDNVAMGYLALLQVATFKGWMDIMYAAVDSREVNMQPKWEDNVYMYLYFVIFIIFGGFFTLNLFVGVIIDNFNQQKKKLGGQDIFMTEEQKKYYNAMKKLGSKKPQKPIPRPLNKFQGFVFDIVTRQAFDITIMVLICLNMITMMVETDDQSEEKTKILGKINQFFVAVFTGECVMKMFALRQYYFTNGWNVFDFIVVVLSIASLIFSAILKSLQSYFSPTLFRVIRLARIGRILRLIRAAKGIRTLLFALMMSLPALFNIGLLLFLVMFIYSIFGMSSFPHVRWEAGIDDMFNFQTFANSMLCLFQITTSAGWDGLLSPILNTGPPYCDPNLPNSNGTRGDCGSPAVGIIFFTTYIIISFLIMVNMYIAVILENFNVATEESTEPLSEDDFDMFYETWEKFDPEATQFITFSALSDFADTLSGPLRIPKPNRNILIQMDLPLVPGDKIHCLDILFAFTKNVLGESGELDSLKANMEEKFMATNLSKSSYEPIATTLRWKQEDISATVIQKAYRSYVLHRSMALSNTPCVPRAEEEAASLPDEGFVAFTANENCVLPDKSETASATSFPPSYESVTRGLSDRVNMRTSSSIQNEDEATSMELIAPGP
# UniProt P54750, sequence (whole entry, looked up): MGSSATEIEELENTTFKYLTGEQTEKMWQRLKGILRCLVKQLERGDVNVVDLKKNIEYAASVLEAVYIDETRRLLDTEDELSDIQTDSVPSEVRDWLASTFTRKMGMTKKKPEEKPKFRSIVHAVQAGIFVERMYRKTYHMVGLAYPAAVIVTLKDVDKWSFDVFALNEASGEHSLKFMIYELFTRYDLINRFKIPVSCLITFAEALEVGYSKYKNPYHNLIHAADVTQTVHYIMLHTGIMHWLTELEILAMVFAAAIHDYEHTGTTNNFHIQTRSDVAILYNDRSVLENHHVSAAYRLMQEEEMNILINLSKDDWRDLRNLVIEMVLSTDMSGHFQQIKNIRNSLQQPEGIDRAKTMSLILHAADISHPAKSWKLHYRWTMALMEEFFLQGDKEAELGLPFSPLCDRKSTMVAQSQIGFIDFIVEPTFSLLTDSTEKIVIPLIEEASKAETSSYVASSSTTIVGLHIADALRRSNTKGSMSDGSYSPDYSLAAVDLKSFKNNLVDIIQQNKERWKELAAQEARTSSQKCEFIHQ
# UniProt P12369, sequence (whole entry, unmodified, looked up): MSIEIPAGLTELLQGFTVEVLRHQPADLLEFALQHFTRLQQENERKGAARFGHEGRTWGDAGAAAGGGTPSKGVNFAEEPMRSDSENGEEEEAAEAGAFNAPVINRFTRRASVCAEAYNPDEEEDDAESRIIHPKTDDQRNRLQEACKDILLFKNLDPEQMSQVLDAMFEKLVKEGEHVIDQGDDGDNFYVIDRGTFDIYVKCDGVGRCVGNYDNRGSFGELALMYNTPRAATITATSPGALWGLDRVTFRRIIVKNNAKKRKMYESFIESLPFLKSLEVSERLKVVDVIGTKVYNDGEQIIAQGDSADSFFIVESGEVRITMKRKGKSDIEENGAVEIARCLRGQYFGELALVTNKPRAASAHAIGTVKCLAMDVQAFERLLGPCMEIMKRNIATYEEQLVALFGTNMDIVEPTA
Molecule,target,test,system,conditions,scale,measurement,value
CCCCCCCCCCCCCCCC(=O)N[C@@H](CCC(=O)NCCCC[C@H](NC(=O)[C@H](CC(N)=O)NC(=O)[C@@H](NC(=O)[C@H](Cc1ccc(O)cc1)NC(=O)[C@H](CCCNC(=N)N)NC(=O)[C@H](CCCNC(=N)N)NC(=O)[C@H](CC(C)C)NC(=O)[C@H](CC(=O)O)NC(=O)[C@H](C)NC(=O)[C@H](C)NC(=O)[C@H](Cc1ccc(O)cc1)NC(=O)[C@H](CCC(N)=O)NC(=O)[C@H](C)NC(=O)[C@H](CCSC)NC(=O)[C@H](CCC(N)=O)NC(=O)[C@H](CCC(=O)O)NC(=O)[C@@H]1CCCN1C(=O)[C@@H](NC(=O)[C@H](C)NC(=O)[C@H](CC(N)=O)NC(=O)[C@H](CC(=O)O)NC(=O)CNC(=O)[C@@H]1CCCN1C(=O)[C@H](Cc1ccc(O)cc1)NC(=O)[C@@H](NC(=O)[C@@H]1CCCN1C(=O)[C@H](CCC(=O)O)NC(=O)[C@H](CC(C)C)NC(=O)[C@@H]1CCCN1C(=O)[C@H](C)NC(=O)c1ccc2c(c1)C(=O)OC21c2ccc(O)cc2Oc2cc(O)ccc21)C(C)C)[C@@H](C)O)[C@@H](C)CC)C(=O)N[C@@H](CC(C)C)C(=O)N[C@H](C(=O)N[C@@H](CCCNC(=N)N)C(=O)N1CCC[C@H]1C(=O)N[C@@H](CCCNC(=N)N)C(=O)N[C@@H](Cc1ccc(O)cc1)C(N)=O)[C@@H](C)O)C(=O)O,"Neuropeptide Y receptor type 4 (NPY4R, Homo sapiens, UniProt P50391)",radioligand displacement,COS-7 transiently expressing,"1 µM, 90 min, room temperature, with: [3H]-hPP 1 nM",relative to: total binding,specific binding,83%
CCCNC(C)C(=O)Nc1c(C)csc1C(=O)OCCC (stereo not drawn),"Sodium channel protein type 10 subunit alpha (SCN10A, Homo sapiens, UniProt Q9Y5Y9)",cell membrane chromatography,,,higher = stronger binding,capacity factor k′,29
NC(=O)c1ccc(COc2ccccc2-c2cc(=O)n(C3CCCCC3O)cn2)cc1 (stereo not drawn),CHRM1,"allosteric agonist, IP1 accumulation",CHO-M1 cells,"10 µM, unit not given",relative to: maximum ACh response,change in baseline activity,80.5 ± 4.1
CCCCCCCCCCSc1nc2c([nH]1)c(=O)n(C)c(=O)n2C,"Progesterone receptor (PGR, Homo sapiens, UniProt P06401)","reporter gene, antagonist, MMTV-luciferase",T47D/A1-2,"10 µM, 24 h, with: 5 nM progesterone",relative to: maximal activity,remaining activity,72%
Cn1cc(-c2ccc(COc3ccccc3-c3cc(=O)n(C4CCCCC4O)cn3)cn2)cn1 (stereo not drawn),CHRM1,"positive allosteric modulator, IP1 accumulation",CHO-M1 cells,"10 µM, 60 min, 37 °C, with: ACh","relative to: ACh alone, higher = stronger potentiation",ΔpEC50 of ACh,1.65 ± 0.43 log units
CCCc1nc2c(C)cc(-c3nc4ccccc4n3C)cc2n1Cc1ccc(-c2ccccc2C(=O)O)cc1,"Peroxisome proliferator-activated receptor gamma (PPARG, Homo sapiens, UniProt P37231)",,COS-7,"10 µM, 39 h",,Emax,61.3%
"Ac-GPSLNPFDEED-NH2 (N-acetyl, C-amide)",mouse EHD1 EH domain,"binding, ITC",peptide,"pH 7.0, 20 °C, KCl 0 mM",,Ka,814000 M⁻¹
NCC(=O)O,"Isoaspartyl peptidase/L-asparaginase (ASRGL1, Homo sapiens, UniProt Q7L266)",differential scanning fluorimetry,,"1 M, pH 7.5, unprocessed protein",,melting temperature,71 °C
COc1ccccc1CN(CCO)C(=O)c1cc(C)c(C)s1,"ATP2A2 (Sus scrofa, UniProt P11607)","enzyme activity, NADH-coupled",porcine cardiac SR vesicles,up to 50 µM,,Ca2+-ATPase activity,inactive
CC(C)(C)OC(=O)Nc1ccc(COc2ccccc2-c2cc(=O)n(C3CCCCC3O)cn2)cc1 (stereo not drawn),CHRM1,"positive allosteric modulator, IP1 accumulation",CHO-M1 cells,"1 µM, 60 min, 37 °C, with: ACh","relative to: ACh alone, higher = stronger potentiation",ΔpEC50 of ACh,1.24 ± 0.14 log units
Nc1nc(Cl)nc2c1ncn2[C@@H]1O[C@@H]2COP(=O)(O)OC2[C@@H]1O (stereo partly drawn),"cAMP-dependent protein kinase type II-beta regulatory subunit, holoenzyme with catalytic subunit (Prkar2b, Rattus norvegicus, UniProt P12369, S112A)","PKA holoenzyme activation, activator, fluorescence anisotropy",,,"relative to: RIIβ over RIα, higher = RIIβ-selective",selectivity ratio,0.9
COc1cc2c(cc1OC)-c1c/c(=N\c3c(C)cc(C)cc3C)n(C)c(=O)n1CC2,"Dual specificity calcium/calmodulin-dependent 3',5'-cyclic nucleotide phosphodiesterase 1A (PDE1A, Homo sapiens, UniProt P54750)","cGMP hydrolysis, inhibitor",,up to 50 µM,,IC50,inactive
C=CC(=O)N1CCC(COCC(=O)N2CCN(c3nc(-c4cnc(N)nc4C(F)F)nc(N4CCOC[C@@H]4C)n3)CC2)CC1,"Phosphatidylinositol 4,5-bisphosphate 3-kinase catalytic subunit alpha isoform (PIK3CA, Homo sapiens, UniProt P42336)",covalent inhibitor,,,,kinact/KI,> 200000 M⁻¹ s⁻¹
CCN(CC)C(=O)c1ccc(COc2ccccc2-c2cc(=O)n(C3CCCCC3O)cn2)cc1 (stereo not drawn),CHRM1,"positive allosteric modulator, IP1 accumulation",CHO-M1 cells,"1 µM, 60 min, 37 °C, with: ACh","relative to: ACh alone, higher = stronger potentiation",ΔpEC50 of ACh,0.18 ± 0.1 log units
COc1ccc(C)c2sc(C(=O)Nc3ccc(C)nc3)nc12,"Muscarinic acetylcholine receptor M4 (CHRM4, Homo sapiens, UniProt P08173)","calcium mobilization, positive allosteric modulator",CHO expressing hM4 and Gqi5,"concentration not given, with: acetylcholine EC20",,activity,inactive

# Repeated from above:
Molecule,target,test,system,conditions,scale,measurement,value
CCCCCCCCCCSc1nc2c([nH]1)c(=O)n(C)c(=O)n2C,"Progesterone receptor (PGR, Homo sapiens, UniProt P06401)","reporter gene, antagonist, MMTV-luciferase",T47D/A1-2,"10 µM, 24 h, with: 5 nM progesterone",relative to: maximal activity,remaining activity,72%
